Measurements of several laboratories.
Numbered parts are unrelated; each lists some results of a single study.
Chain of UniProt O75716 (whole entry, looked up): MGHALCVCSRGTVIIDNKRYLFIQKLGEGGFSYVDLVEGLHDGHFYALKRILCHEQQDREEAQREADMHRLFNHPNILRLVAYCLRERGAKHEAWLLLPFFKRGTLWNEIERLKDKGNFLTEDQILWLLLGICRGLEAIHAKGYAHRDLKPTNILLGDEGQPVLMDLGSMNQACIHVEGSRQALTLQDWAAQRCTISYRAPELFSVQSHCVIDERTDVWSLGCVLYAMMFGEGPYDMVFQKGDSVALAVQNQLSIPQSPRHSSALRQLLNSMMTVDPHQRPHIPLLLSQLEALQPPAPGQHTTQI
Chain of UniProt Q96RR4 (whole entry, looked up): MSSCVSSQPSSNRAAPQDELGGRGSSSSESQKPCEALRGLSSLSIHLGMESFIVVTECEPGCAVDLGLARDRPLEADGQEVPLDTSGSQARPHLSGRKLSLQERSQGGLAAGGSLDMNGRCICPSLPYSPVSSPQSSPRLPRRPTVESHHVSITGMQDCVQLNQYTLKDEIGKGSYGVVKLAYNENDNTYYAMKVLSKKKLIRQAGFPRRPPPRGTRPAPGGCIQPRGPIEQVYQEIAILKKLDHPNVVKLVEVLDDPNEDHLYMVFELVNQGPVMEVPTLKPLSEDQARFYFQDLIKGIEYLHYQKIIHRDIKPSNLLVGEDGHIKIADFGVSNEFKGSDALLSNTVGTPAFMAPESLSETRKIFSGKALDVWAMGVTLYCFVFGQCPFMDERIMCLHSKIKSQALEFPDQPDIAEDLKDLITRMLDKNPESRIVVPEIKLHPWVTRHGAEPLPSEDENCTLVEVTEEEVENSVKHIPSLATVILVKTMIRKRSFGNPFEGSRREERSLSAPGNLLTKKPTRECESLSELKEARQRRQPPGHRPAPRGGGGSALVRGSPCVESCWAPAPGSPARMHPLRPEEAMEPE
Chain of UniProt Q15835 (whole entry, looked up): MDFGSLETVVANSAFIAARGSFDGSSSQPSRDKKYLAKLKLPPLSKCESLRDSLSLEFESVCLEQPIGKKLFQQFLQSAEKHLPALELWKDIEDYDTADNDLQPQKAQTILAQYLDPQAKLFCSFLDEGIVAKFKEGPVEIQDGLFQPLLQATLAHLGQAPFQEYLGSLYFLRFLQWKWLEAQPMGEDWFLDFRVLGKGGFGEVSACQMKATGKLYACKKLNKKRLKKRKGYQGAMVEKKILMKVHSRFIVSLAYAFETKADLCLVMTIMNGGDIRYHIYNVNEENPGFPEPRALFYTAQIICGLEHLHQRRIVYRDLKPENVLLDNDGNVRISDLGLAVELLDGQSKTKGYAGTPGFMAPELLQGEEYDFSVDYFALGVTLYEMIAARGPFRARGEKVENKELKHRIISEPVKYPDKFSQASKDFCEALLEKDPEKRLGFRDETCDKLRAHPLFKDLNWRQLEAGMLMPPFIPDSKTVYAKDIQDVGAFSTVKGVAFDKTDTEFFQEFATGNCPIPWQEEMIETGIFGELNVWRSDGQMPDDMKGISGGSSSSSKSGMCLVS
Chain of UniProt Q12851 (whole entry, looked up): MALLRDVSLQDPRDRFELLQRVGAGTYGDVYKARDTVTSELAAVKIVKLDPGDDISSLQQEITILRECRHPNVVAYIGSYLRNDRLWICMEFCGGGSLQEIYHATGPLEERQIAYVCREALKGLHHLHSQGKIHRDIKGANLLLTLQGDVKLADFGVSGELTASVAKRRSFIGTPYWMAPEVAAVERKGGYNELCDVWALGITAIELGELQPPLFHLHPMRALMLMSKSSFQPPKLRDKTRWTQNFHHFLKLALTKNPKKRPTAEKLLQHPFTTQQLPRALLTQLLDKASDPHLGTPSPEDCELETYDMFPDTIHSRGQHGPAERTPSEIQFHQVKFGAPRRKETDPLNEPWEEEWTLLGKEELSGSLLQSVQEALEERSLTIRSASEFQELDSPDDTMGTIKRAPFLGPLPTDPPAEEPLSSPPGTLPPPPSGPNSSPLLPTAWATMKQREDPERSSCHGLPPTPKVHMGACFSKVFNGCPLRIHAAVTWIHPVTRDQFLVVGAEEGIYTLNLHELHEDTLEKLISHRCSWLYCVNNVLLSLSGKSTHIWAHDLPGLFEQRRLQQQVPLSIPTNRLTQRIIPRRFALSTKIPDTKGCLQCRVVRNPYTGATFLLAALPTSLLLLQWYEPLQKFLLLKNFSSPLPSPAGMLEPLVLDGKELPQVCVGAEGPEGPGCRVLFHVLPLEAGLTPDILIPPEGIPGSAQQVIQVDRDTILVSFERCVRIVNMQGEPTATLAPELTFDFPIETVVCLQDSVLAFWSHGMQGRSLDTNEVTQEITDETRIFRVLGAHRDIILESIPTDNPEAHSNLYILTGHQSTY
Chain of UniProt P46734 (whole entry, looked up): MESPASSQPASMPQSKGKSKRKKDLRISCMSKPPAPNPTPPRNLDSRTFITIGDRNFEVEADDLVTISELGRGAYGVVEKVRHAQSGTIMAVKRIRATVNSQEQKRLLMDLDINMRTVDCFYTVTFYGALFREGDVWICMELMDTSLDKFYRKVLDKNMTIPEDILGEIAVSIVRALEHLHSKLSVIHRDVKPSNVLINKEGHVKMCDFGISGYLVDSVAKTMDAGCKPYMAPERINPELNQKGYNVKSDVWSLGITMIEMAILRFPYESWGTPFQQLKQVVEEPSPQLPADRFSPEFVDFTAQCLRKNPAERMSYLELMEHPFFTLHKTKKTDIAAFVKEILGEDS
Chain of UniProt P49674 (whole entry, looked up): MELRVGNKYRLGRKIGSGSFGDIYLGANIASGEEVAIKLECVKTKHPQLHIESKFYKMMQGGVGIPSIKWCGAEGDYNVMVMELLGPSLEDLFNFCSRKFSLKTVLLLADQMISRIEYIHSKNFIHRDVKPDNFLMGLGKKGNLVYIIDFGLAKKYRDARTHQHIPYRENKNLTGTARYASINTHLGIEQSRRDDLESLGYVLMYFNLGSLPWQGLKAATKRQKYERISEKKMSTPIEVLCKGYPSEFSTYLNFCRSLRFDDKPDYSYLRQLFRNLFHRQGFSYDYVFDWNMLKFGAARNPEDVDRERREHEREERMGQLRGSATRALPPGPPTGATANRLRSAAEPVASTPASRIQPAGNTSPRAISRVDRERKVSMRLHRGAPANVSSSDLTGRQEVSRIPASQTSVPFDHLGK
Chain of UniProt P16591 (whole entry, looked up): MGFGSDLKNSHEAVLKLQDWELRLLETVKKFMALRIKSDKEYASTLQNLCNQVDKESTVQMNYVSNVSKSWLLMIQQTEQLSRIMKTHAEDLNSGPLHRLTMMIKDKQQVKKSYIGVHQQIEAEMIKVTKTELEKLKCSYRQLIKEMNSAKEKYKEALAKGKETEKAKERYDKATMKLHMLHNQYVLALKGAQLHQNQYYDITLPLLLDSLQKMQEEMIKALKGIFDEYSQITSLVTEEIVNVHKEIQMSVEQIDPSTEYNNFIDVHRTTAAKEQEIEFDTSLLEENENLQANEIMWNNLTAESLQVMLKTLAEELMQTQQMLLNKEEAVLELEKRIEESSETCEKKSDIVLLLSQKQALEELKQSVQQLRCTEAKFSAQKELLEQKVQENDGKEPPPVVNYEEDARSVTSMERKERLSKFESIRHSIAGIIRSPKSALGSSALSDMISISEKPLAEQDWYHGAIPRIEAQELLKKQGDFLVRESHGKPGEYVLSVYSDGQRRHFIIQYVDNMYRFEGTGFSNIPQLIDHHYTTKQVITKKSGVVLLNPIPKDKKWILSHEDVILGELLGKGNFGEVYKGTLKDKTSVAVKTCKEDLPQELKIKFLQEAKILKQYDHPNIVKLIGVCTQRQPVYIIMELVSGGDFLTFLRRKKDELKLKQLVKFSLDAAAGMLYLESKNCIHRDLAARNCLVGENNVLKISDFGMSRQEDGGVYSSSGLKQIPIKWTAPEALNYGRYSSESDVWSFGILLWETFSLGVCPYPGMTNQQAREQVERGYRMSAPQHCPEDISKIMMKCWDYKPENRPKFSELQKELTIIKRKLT

Set 1
Target: Phosphate system positive regulatory protein PHO4, full length, GST-tagged (PHO4, Saccharomyces cerevisiae, UniProt P07270, residues 1-312)
Method: competition protein-binding microarray
Form: double-stranded DNA, one strand shown
Medium: in vitro
Tested at: 2 µM
Notes: whole 60-bp probe, lowest competitor level
With: Cbf1 competitor, 0.05 µM
Reading: higher = stronger binding
Target sequence (chain): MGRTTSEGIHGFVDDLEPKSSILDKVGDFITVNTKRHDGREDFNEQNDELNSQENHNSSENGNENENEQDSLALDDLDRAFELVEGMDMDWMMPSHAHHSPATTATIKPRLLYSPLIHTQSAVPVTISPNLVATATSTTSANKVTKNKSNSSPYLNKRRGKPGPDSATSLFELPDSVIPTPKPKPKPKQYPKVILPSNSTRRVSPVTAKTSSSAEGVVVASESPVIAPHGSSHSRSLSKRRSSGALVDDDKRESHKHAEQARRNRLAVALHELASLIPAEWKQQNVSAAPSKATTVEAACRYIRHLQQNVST
The fluorescence intensity of `CTTTCCCGATCTTTTCACGTGCCGTTAGCACATTTGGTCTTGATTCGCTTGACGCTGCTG` is reported as 14300 a.u.
The fluorescence intensity of `CGGGGTTAAGTTTGACGTGTGGGTGGCTTGCAGCAGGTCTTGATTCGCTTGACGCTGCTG` is reported as 6170 a.u.
With `ATGCTAAGAGATACGCTCGTGATGGCTTGGCGCAATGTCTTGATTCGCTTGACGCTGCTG` the fluorescence intensity was 8070 a.u.
`TCGGCCATTGAGTTCCACGTTTAATACCGCCAGAGTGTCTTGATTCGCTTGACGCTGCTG` gave a fluorescence intensity of 9830 a.u.
For `TGAAATGGAATCGACCACGGGTCTTATTGAAAGCGGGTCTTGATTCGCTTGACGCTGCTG`, the fluorescence intensity was 8090 a.u.
The fluorescence intensity of `GCCAAAGCGCAAGGCCGCGTGGACCACCAGGACGAAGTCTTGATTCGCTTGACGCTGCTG` is reported as 8710 a.u.
`AGCCGGCTATTTACCCACGTCCGGTATCTCAAAGGAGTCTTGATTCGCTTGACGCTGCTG` has a fluorescence intensity of 5290 a.u.
`CTTCTGTAAATTTGGGGGGTGGGTGGACGCGCCCCGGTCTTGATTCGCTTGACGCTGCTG` gave a fluorescence intensity of 5330 a.u.

Set 2
Target: Tyrosine-protein kinase Fyn (FYN, Homo sapiens, UniProt P06241)
Chain of UniProt P06241 (whole entry, looked up): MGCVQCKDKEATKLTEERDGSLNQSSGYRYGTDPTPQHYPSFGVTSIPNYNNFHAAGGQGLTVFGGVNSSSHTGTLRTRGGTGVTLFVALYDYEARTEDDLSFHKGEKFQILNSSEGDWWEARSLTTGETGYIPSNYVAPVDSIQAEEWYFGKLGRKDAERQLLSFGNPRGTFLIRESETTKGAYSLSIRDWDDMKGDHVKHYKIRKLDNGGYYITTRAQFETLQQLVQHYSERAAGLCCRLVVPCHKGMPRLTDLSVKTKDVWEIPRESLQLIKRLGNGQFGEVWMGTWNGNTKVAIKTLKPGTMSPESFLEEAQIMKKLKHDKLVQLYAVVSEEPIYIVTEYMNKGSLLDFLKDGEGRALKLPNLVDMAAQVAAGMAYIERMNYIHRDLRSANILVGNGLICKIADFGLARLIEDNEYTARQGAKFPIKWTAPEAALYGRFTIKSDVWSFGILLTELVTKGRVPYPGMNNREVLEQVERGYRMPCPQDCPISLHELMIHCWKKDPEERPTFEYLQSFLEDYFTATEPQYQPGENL
Effect on: enzyme activity
Mode: inhibitor
Tested at: 0.5 µM
Relative to: control
With O=C(O)c1ccc2c3c1cccc3c(=O)n1c3ccccc3nc21 the remaining activity was 94%.
The remaining activity of CN(C)c1ccc(C=C2C(=O)Nc3ccccc32)cc1 is reported as 104%.
O=C1NC(=O)C(c2cn(CCCO)c3ncccc23)=C1c1cnccn1 has a remaining activity of 107%.
The remaining activity of O=C(CCCc1ccc(-c2ccccc2F)cc1)Nc1ccc(O)cc1 is reported as 94.7%.
CC(C)[C@H](CO)Nc1nc(Nc2cc(N)cc(Cl)c2)c2ncn(C(C)C)c2n1 gave a remaining activity of 18.9%.
With O=S(=O)(c1cccc2cnccc12)N1CCCNCC1 the remaining activity was 106%.
NCCNc1ncc(C(N)=O)c(Nc2cccc(C(F)(F)F)c2)n1 gave a remaining activity of 91.6%.
The remaining activity of COc1cc2nccc(Oc3ccc(NC(=S)NC(=O)c4ccccc4C)cc3)c2cc1OC is reported as 77.4%.
The remaining activity of Nc1ncnc2n[nH]c(Nc3ccc(F)cc3)c12 is reported as 93%.
CO[C@H]1C[C@@H]2CC[C@@H](C)[C@@](O)(O2)C(=O)C(=O)N2CCCC[C@H]2C(=O)O[C@H]([C@H](C)C[C@@H]2CC[C@@H](O)[C@H](OC)C2)CC(=O)[C@H](C)/C=C(\C)[C@@H](O)[C@@H](OC)C(=O)[C@H](C)C[C@H](C)/C=C/C=C/C=C/1C gave a remaining activity of 109%.
Oc1ccc(-c2nc(-c3ccncc3)c(-c3ccc(F)cc3)[nH]2)cc1 has a remaining activity of 87.5%.
For O=C(Nc1cccc(Nc2cc(Nc3cccc(C(F)(F)F)c3)ncn2)c1)C1CC1, the remaining activity was 100%.
With CNC(=O)c1cc(Oc2ccc(NC(=O)Nc3ccc(Cl)c(C(F)(F)F)c3)cc2)ccn1 the remaining activity was 91.6%.
With Cn1c2ccccc2c2c3c(c4c5ccccc5n(CCC#N)c4c21)CNC3=O the remaining activity was 90.6%.

Set 3
Target: RING finger protein unkempt homolog, zinc fingers 1-6, GST-SBP tag (UNK, Homo sapiens, UniProt Q9C0B0, residues 30-357)
Chain of UniProt Q9C0B0 (30-357, looked up): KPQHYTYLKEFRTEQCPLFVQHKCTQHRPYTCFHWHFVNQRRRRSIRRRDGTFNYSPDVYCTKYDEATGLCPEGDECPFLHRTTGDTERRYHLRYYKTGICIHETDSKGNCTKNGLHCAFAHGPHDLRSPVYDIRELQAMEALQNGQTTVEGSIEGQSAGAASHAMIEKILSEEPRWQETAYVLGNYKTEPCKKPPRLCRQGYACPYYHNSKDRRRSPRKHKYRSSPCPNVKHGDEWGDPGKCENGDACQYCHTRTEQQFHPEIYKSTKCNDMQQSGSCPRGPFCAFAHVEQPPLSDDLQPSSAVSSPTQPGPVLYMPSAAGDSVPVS
Method: RNA Bind-n-Seq
Form: RNA
Medium: in vitro
Tested at: not given
Notes: RNA with constant flanks, human and mouse sites, ends assumed
Relative to: input RNA pool
Reading: higher = stronger binding
`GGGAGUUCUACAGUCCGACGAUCAAGGAUUGUAAAUCCUAUAGUGUGGGUGUAGCAUAUAAAACUUUAGGAAAAUUUGAUCAGUUAGGAAAGACAAAUACUAGUUGGUGCGUUCACGUCAACAGCUGGUUACAGAACACAUUUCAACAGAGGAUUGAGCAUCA` gave a bound/input enrichment of 64.7 ratio.
`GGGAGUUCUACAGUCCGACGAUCACUAUUGGAUUUAAUGUGGAGACGGUGACAUACAAAAAUCUCAAAUUCCAAGUUUGGGACUUAGGAGGACAGACAAGUAUCAGGCCAUACUGGAGAUGUUAUUAUUCAAACACAGAUGCACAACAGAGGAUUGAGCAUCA` gave a bound/input enrichment of 0.574 ratio.
`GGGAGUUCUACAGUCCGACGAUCCGGCUGCAGGGUCCUUGUGCUGCGCUGGUUCUUUGAAAGUCUCAGUGUUGAUAUUGAACUUAAAGAGCAGAGAUGGAGAUCAGUAGCAAGGCAGUCAUUUUUUUAAAGCAGUAAGUAACACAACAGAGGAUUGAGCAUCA` has a bound/input enrichment of 0.285 ratio.
`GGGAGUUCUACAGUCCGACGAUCGUGUCAUUUGGGGACACGCCACUGACACAGAGCAUCCAGGCCAAUGUGACGGUGGCCCCCGAGCGCCUGGUGCCCAUCAUUGAGGGUGGCUCAUACCGCGUGUGGUCAGACACACGGGACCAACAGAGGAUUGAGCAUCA` gave a bound/input enrichment of 0.128 ratio.
`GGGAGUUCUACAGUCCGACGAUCAGCCGCCCCUUCGCCAAGGUCACCGUCUGCUUCCCACCUGACCCUACUGCCCCGGCCUCCGCCUGGAAGCCGGCUGGGCUCCCACCUCCCGCCUUCCGCCGCUCUGAGCCCUUCCUGGCACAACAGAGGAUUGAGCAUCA` has a bound/input enrichment of 0.194 ratio.
For `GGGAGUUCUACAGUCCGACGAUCUAUUUGAUGCGAGGUCCAUGUCUUCCAUACACCAGCAAACUUGUGAAGACCUUAUUAUAUAACUUUAUCAGACAAGAAAAGCCACCUCCUCCAGGGGCCCAUGUUUUCCCUCAGCAGUCGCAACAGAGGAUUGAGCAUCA`, the bound/input enrichment was 0.688 ratio.
The bound/input enrichment of `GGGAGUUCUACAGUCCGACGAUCUUUCCGUCUUUUGGAAGUGGAUUUUCUUCUUUUGAUACAGGAUUUACUUCAUUUGGGUCACUAGGUCACGGGGGCCUCACUUCAUUCUCUUCCACGUCAUUUGGUGGUAGUGGCAUGGGCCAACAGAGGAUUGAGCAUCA` is reported as 0.443 ratio.
The bound/input enrichment of `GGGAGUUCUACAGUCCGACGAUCUUCCUCUGCUUGUUUUGAGCCCACCUUGGGGGCUGCUCGUGUAAUGAGAUUUUGAGAAGGUAGCUCUAGCCCAGGUGGGGUCCAGGUUUAGAGUCAGUAGCAGAUGCACCCCACACAAGCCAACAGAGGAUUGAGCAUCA` is reported as 0.449 ratio.

Set 4
SMILES: Nc1c(C(=O)NCc2ccc(C(=O)NCCCC3CCCCC3)cc2)cnn1-c1ccccc1
Effect on: cell-free assay
Method: competition with immobilised ligand
Tested at: 0.1 µM
The remaining binding was 100% (CAMKK2 (Homo sapiens, UniProt Q96RR4)).
It gave 94% for remaining binding (MAP4K2 (Homo sapiens, UniProt Q12851)).
The remaining binding was 100% (CIT (Homo sapiens, UniProt O14578)).
For STK16 (Homo sapiens, UniProt O75716): remaining binding read 100%.
For BMPR1A (Homo sapiens, UniProt P36894): remaining binding read 100%.
For STK25 (Homo sapiens, UniProt O00506): remaining binding read 82%.
For Tyrosine-protein kinase ABL1, non-phosphorylated (ABL1, Homo sapiens, UniProt P00519, T315I): remaining binding read 100%.
The remaining binding was 78% (AKT3 (Homo sapiens, UniProt Q9Y243)).
The remaining binding was 90% (FER (Homo sapiens, UniProt P16591)).
For HIPK3 (Homo sapiens, UniProt Q9H422): remaining binding read 100%.
It gave 98% for remaining binding (CSNK1E (Homo sapiens, UniProt P49674)).
For SRMS (Homo sapiens, UniProt Q9H3Y6): remaining binding read 100%.
The remaining binding was 100% (GRK1 (Homo sapiens, UniProt Q15835)).
It gave 73% for remaining binding (FLT3 (Homo sapiens, UniProt P36888, F691L/ITD)).
For MAP2K3 (Homo sapiens, UniProt P46734): remaining binding read 85%.
